Results gathered from unrelated publications.
Protocols differ between the studies behind these lines. “And” joins repeats or separate records; there may be more than shown.
Target: Mitogen-activated protein kinase 1 (MAPK1, Homo sapiens, UniProt P28482)
Sequence of UniProt P28482 (whole entry, looked up): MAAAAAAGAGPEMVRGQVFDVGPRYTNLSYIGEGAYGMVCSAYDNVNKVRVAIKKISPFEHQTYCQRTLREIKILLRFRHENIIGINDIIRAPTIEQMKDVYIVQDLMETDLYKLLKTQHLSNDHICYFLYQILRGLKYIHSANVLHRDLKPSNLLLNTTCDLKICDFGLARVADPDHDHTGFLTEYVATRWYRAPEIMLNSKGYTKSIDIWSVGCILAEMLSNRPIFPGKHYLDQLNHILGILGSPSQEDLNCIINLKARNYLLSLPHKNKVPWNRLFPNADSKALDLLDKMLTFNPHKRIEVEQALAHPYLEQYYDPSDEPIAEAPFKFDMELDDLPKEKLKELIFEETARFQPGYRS

For c1cnc2ccc(Nc3nc(NC4CC4)c4nc[nH]c4n3)cc2c1, the remaining activity was 85% (kinase activity, inhibitor, SelectScreen kinase profiling; 1 µM; reference: control).
With CN1CC(Oc2cnc(C#N)cc2-c2ccn3nc(NC(=O)C4CC4)cc3c2)C1 the inhibition was -8% (inhibitor, KinaseProfiler panel; 1 µM).
COc1cc(-c2cncc3c2CN(C)Cc2cc(N4CCNCC4)ccc2-3)cc(OC)c1OC gave a remaining activity of 110% (kinase activity; 1 µM, human enzyme, together with: ATP 10 µM; reference: DMSO control).
COc1cc(F)ccc1-c1ncnc(Nc2cccc(C[S@](C)(=N)=O)c2)n1 has a remaining activity of 92% (kinase activity; 10 µM, together with: 10 µM ATP).
With O=C1NC(=O)/C(=C/c2ccc(-c3ccc(F)cc3O)o2)S1 the remaining activity was 104% (enzyme activity; 10 µM).
With O=C(Nc1ccc2[nH]nc(-c3ccncc3)c2c1)[C@@H]1CCN(CC(=O)N2CCN(c3ccc(-c4ncccn4)cc3)CC2)C1 the normalized luminescence was 1.19 and 1.15 and 1.42 (kinase activity, Kinase-Glo luminescence; concentration not given).
With C=CC(=O)N1CCC[C@@H](n2nc(-c3ccc(Oc4ccccc4)cc3)c3c(N)ncnc32)C1 the remaining activity was 62.7% (1 µM).
COCCNc1nc2ccc(C#CC3(O)CCCCC3)cc2n1-c1ccnc(N)n1 — result for “remaining kinase activity”: 11.3% (enzyme activity, inhibitor, Z'-LYTE; 1 µM; reference: no-inhibitor control).

A few entries again:
With C=CC(=O)N1CCC[C@@H](n2nc(-c3ccc(Oc4ccccc4)cc3)c3c(N)ncnc32)C1 the remaining activity was 62.7% (1 µM).
